Published values from different studies.
Lines come from different studies, so protocols differ. Numbers after ± are the reported error. ≈ marks a conversion by molar mass, not a printed value.

CCCCn1c2ccccc2c2ccnc(-c3ccc(OC)cc3)c21 has an LD50 of 1110 mg/kg (OECD guideline; Kunming mice, both sexes; oral, single dose, 14 days).
C1=CCCC=CCC1.C1=CCCC=CCC1.[Cl][Hg-]([Cl])[Cl].[Cl][Hg-]([Cl])[Cl].[Pt+][c]1ccccc1P(=Nc1ccccc1)(c1ccccc1)c1ccccc1.[Pt+][c]1ccccc1P(=Nc1ccccc1)(c1ccccc1)c1ccccc1 has an effective permeability of 4.72e-05 cm/s (rat, intestine in situ perfusion; 20 µM).
The E1/2 of CC(=O)[O-].F[P-](F)(F)(F)(F)F.[Co+2].c1ccc(CN2CCCN3CCN(CCCN(Cc4ccccc4)CC3)CC2)cc1 is reported as 0.648 V (cyclic voltammetry, item: second Co2+/Co3+ couple; acetonitrile; reference: SHE).
With C=C1C(=O)OC2CC(C)C3C=CC(=O)C3(C)C(O[Si](C)(C)C(C)C)C12 (stereo not shown) the CC50 was 0.36 ± 0.3 µg/mL (≈ 0.993 µM) (propidium iodide flow cytometry; primary splenocytes, BALB/c mouse; 48 h, 10% fetal calf serum).
For COC(=O)C[C@](O)(CCCC(C)(C)OC(C)=O)C(=O)O[C@@H]1C(OC)=C[C@]23CCCN2CCc2cc4c(cc2[C@H]13)OCO4, tissue concentration read “not detected” (CD1 mouse, stomach; subcutaneous, 1 mg/kg, 24 h, below quantification limit 1.00 ng/mL).
C/C=C/C=C/C/C=C/CCCCCCCc1cccc(O)c1O has a tissue concentration of 10600 ± 1650 ng/g (female Kunming mice, tumour-bearing, liver; intravenous, 10 mg/kg, 8 h).
For COc1ccc(C)cc1NC(=O)OC1CC2CCCC(C1)N2Cc1ccc(CC[18F])cc1 (stereo not shown), “tumour to tissue ratio” read 1.92 (BALB/c mice, EMT6 tumour; 1 h; reference: tumour over muscle).
For CN(C)C(CNC(=O)Nc1cc(C(F)(F)F)ccc1N1CCOCC1)c1ccncc1 (stereo not shown), the serum magnesium was 6.1 mg/dL (mouse, serum; intraperitoneal, 360 mg/kg single dose).
For O=c1oc2cc(O)ccc2c2ccccc12, the pKa1 was 8.53 (potentiometric titration; water, extrapolated from methanol/water; 25 °C).
Under “time to below LLOQ”, CSCC[C@H](NC(=O)[C@H](CO)NC(=O)[C@H](Cc1ccc(O)cc1)NC(=O)[C@@H](N)CO)C(=O)N[C@@H](CCC(=O)O)C(=O)N[C@@H](Cc1c[nH]cn1)C(=O)N[C@@H](Cc1ccccc1)C(=O)N[C@@H](CCCNC(=N)N)C(=O)N[C@@H](Cc1c[nH]c2ccccc12)C(=O)NCC(=O)N[C@@H](CCCCN)C(=O)N1CCC[C@H]1C(=O)N[C@H](C(=O)NCC(=O)N[C@@H](CCCCN)C(=O)N[C@@H](CCCCN)C(=O)N[C@@H](CCCNC(=N)N)C(=O)N[C@@H](CCCNC(=N)N)C(=O)N1CCC[C@H]1C(=O)N[C@H](C(=O)N[C@@H](CCCCN)C(=O)N[C@H](C(=O)N[C@@H](Cc1ccc(O)cc1)C(=O)N1CCC[C@H]1C(=O)N[C@@H](CC(=O)O)C(=O)NCC(=O)N[C@@H](C)C(=O)N[C@@H](CCC(=O)O)C(=O)N[C@@H](CC(=O)O)C(=O)N[C@@H](CCC(=O)O)C(=O)N[C@@H](CC(C)C)C(=O)N[C@@H](C)C(=O)N[C@@H](CCC(=O)O)C(=O)N[C@@H](C)C(=O)N[C@@H](Cc1ccccc1)C(=O)N1CCC[C@H]1C(=O)N[C@@H](CC(C)C)C(=O)N[C@@H](CCC(=O)O)C(=O)N[C@@H](Cc1ccccc1)C(=O)O)C(C)C)C(C)C)C(C)C is recorded as less than 24 h (human, plasma; subcutaneous, dose not given, added: repository corticotropin injection).
For C[C@@H](O)[C@H](NC(=O)[C@H](CCC(=O)O)NC(=O)[C@H](Cc1ccccc1)NC(=O)[C@H](Cc1c[nH]c2ccccc12)NC(=O)[C@H](CCCCN)NC(=O)[C@H](CCCCN)NC(=O)[C@H](CCCCN)NC(=S)Nc1ccc2c(c1)C(=O)OC21c2ccc(O)cc2Oc2cc(O)ccc21)C(=O)N[C@@H](Cc1c[nH]c2ccccc12)C(=O)N[C@@H](Cc1ccccc1)C(=O)N[C@H](C(=O)N[C@@H](CCC(=O)O)C(=O)N[C@@H](Cc1c[nH]c2ccccc12)C(=O)N1CCC[C@H]1C(=O)N[C@@H](CCCCN)C(=O)N[C@@H](CCCCN)C(=O)N[C@@H](CCCCN)C(=O)N[C@@H](CCCCN)C(=O)O)[C@@H](C)O, “cumulative peptide release” read 54.6 µg (gelatin hydrogel 100 mg/mL; 56.6 µg loaded, glutaraldehyde cross-linked, added: PBS).
Under “MO share of white cells”, CC[C@H](C)[C@H](NC(=O)[C@H](CC(=O)O)NC(=O)[C@H](CO)NC(=O)[C@H](CCC(N)=O)NC(=O)[C@H](C)NC(=O)[C@H](CC(=O)O)NC(=O)[C@H](CCC(=O)O)NC(=O)[C@H](Cc1c[nH]cn1)NC(=O)[C@H](Cc1ccc(O)cc1)NC(=O)[C@H](C)NC(=O)[C@H](CC(=O)O)NC(=O)[C@H](CCC(=O)O)NC(=O)[C@H](Cc1c[nH]cn1)NC(=O)[C@H](Cc1ccc(O)cc1)NC(=O)[C@H](C)NC(=O)[C@H](CC(=O)O)NC(=O)[C@H](CCC(=O)O)NC(=O)[C@H](Cc1c[nH]cn1)NC(=O)[C@H](Cc1ccc(O)cc1)NC(=O)[C@H](C)NC(=O)[C@H](CC(=O)O)NC(=O)[C@H](CCC(=O)O)NC(=O)[C@H](Cc1c[nH]cn1)NC(=O)[C@H](Cc1ccc(O)cc1)NC(=O)[C@H](C)NC(=O)[C@H](CC(=O)O)NC(=O)[C@H](CCC(=O)O)NC(=O)[C@H](Cc1c[nH]cn1)NC(=O)[C@@H](N)Cc1ccc(O)cc1)C(=O)N[C@H](C(=O)N[C@@H](C)C(=O)N[C@@H](Cc1c[nH]cn1)C(=O)N[C@@H](CC(C)C)C(=O)N[C@@H](CC(C)C)C(=O)O)C(C)C is recorded as 7.8 ± 0.5% (mouse SN model, blood; dose not given).
For c1ccc(C2(CCNC3CCC4(SCCS4)c4ccccc43)CCOC3(CCCC3)C2)nc1 (stereo not shown), the clearance was 17 mL/min/kg (Sprague-Dawley rat, plasma; intravenous, 0.05 mg/kg).
N=C(N)NCc1ccc(C(=O)NCCCC[C@H](NC(=O)N[C@@H](CCC(=O)O)C(=O)O)C(=O)O)cc1[131I] gave a tissue uptake of 0.66 ± 0.26 %ID/g (SCID mouse, PC-3 xenografts, bone; 1 h).
Cc1cc(Nc2nc(C[C@@]3(C(=O)O)CCN(Cc4cccc(Cl)c4F)[C@H](C)C3)cc(C)c2F)n[nH]1 has a clearance of 3.96 mL/min/kg (beagle dog, both sexes, plasma; intravenous, 1 mg/kg).
CC[C@H](C)[C@@H]1NC(=O)[C@H](CCCCN)NC(=O)[C@H](CCCCN)NC(=O)[C@H](Cc2ccc(O)cc2)NC(=O)[C@H](CC(C)C)NC(=O)[C@@H]2CCCN2C(=O)CNC(=O)CNC(=O)[C@@H](N)CSSC[C@@H](C(=O)N[C@@H](CCC(=O)O)C(=O)N[C@@H](CO)C(N)=O)NC(=O)[C@H](CC(C)C)NC(=O)[C@H](CCCCN)NC(=O)[C@H](CCCCN)NC(=O)[C@H]([C@@H](C)CC)NC(=O)[C@H]([C@@H](C)CC)NC(=O)[C@H](CCCCN)NC(=O)[C@H](CCCCN)NC(=O)[C@H](Cc2ccc(O)cc2)NC(=O)[C@H](CC(C)C)NC(=O)[C@@H]2CCCN2C(=O)[C@H](C)NC(=O)CNC(=O)CNC(=O)[C@H](CO)NC(=O)CNC(=O)CNC(=O)[C@H](CO)NC(=O)[C@H](CCC(=O)O)NC(=O)[C@H](CC(C)C)NC(=O)[C@H](CC(C)C)NC(=O)[C@H](CCCCN)NC(=O)[C@H](CCCCN)NC(=O)[C@H]([C@@H](C)CC)NC1=O has an HC10 of 105 ± 2.9 µM (hemolysis; uninfected human erythrocytes; 1 h).
Under “adverse drug reactions”, [2H]C([2H])([2H])C([2H])([2H])C([2H])([2H])OC(C(=O)OC1CCNCC1)(c1ccccc1)c1ccccc1 is recorded as 0% (item: oropharyngeal pain; healthy Japanese male; oral, 15 mg once daily, 16 days).
For CSCC[C@@H]1NC(=O)[C@@H]2CSSC[C@H](NC(=O)[C@H](CO)NC(=O)[C@H](C)N)C(=O)N[C@@H](CCCNC(=N)N)C(=O)N[C@@H]([C@@H](C)O)C(=O)N3CCC[C@H]3C(=O)N[C@@H](CCCCN)C(=O)N[C@@H](CC(=O)O)C(=O)N[C@H]3CSSC[C@H](NC(=O)[C@H](CCCCN)NC(=O)[C@H](CCCNC(=N)N)NC(=O)[C@H](CC(N)=O)NC1=O)C(=O)N[C@@H](CCCCN)C(=O)N[C@H]1CSSC[C@H](NC(=O)[C@@H]4CCCN4C(=O)[C@H](CC(=O)O)NC(=O)[C@H](C)NC3=O)C(=O)N[C@@H](C)C(=O)N[C@@H](CCCCN)C(=O)N[C@@H](CCC(=O)O)C(=O)N[C@@H]([C@@H](C)O)C(=O)NCC(=O)N[C@@H](CSSC[C@@H](C(N)=O)NC(=O)[C@H](CCCNC(=N)N)NC(=O)[C@H](CC(N)=O)NC1=O)C(=O)N1CCC[C@H]1C(=O)N[C@@H](Cc1ccc(O)cc1)C(=O)NCC(=O)N[C@@H](CCCCN)C(=O)N2, the Phosphorus was 5.12 mg/dL (DA rat pristane-induced arthritis, serum; subcutaneous, 0.1 mg/kg single dose at onset, 21 days).
CC[C@H](C)[C@@H]1NC(=O)[C@@H](NC(=O)CNC(=O)c2ccc(F)cc2)CSSC[C@@H]2NC(=O)[C@H](C)NC(=O)CNC(=O)[C@@H]3CCCN3C(=O)[C@@H]3CSSC[C@@H](C(=O)NCC(=O)O)NC(=O)[C@H](Cc4ccc(O)cc4)NC(=O)CNC(=O)[C@H](CC(N)=O)NC(=O)CNC(=O)[C@H](CCCNC(=N)N)NC(=O)[C@H](CSSC[C@H](NC(=O)[C@H](CCCNC(=N)N)NC(=O)[C@H](Cc4ccccc4)NC(=O)[C@H](CC(C)C)NC(=O)[C@H](CC(C)C)NC(=O)[C@H]([C@@H](C)O)NC(=O)CNC(=O)[C@H](CC(C)C)NC(=O)[C@H](CC(=O)O)NC(=O)[C@H]([C@@H](C)O)NC(=O)[C@H](CCCNC(=N)N)NC(=O)[C@H](CCSC)NC(=O)[C@H](CC(N)=O)NC(=O)[C@H](CC(C)C)NC1=O)C(=O)N[C@@H](CCCNC(=N)N)C(=O)N[C@@H](CCCNC(=N)N)C(=O)N[C@@H](CC(=O)O)C(=O)N[C@@H](CO)C(=O)N[C@@H](CC(=O)O)C(=O)N3)NC(=O)[C@H]([C@@H](C)CC)NC2=O [fluorine-18 labelled] — result for “blood clearance half-life”: 1.6 min (dynamic PET; mouse, BXPC-3 xenograft, heart; intravenous).
For C[S+]1CC[S+]2CC[P+](CO)(CO)[Re-2]12(=[C]=O)(=[C]=O)=[C]=O.[Br-] (stereo not shown), chemical stability read “stable” (saturated aqueous cysteine; 6 months, 25 °C).
For CC1=CC=c2ccc3c4c2[N]1[Re](=[C]=O)(=[C]=O)(=[C]=O)([C]#[N+]c1c(C)cccc1C)[N]4C(C)=CC=3.O=S(=O)([O-])C(F)(F)F, “cathodic peak potential” read -1.28 V vs SCE (cyclic voltammetry; acetonitrile; irreversible reduction).
For CC[C@H](C)C(=O)N1CCC(NC(=O)Nc2ccc(OC(F)(F)F)c(F)c2)CC1, “subjects with moderate TEAE” read 0% (healthy volunteers; oral, 0.5 mg single dose, 14 (unit not given)).
The MRT of CC1(C)C(=O)N(c2ccc(C#N)c(C(F)(F)F)c2)C(=S)N1c1ccc(C(=O)O)c(F)c1 is reported as 13.9 ± 2.34 days (human, male, plasma; oral, 160 mg, single dose, after high-fat meal).
Under “maximum tolerated dose”, CSCc1ccccn1.F[P-](F)(F)(F)(F)F.F[P-](F)(F)(F)(F)F.[Ru+2].c1ccc(-c2ccccn2)nc1.c1ccc(-c2ccnc3c2ccc2c(-c4ccccc4)ccnc23)cc1 is recorded as 300 µM (wild-type tumour-free zebrafish embryos; intravenous or retro-orbital, 1 nL, followed by light activation).
CC(C)[C@H](NC(=O)CNC(=O)[C@H](CCC(N)=O)NC(=O)[C@H](C)N)C(=O)O — result for “subjects with serious adverse events”: 0% (human; intravenous infusion, 45 mg/kg/h, 2 h infusion).
With C[C@@H]1CC[C@H]2[C@@H](C)CO[C@@H]3O[C@@]4(C)CC[C@@H]1[C@]32OO4 the stability accuracy was 102% (item: compound; rat, plasma; 800 ng/mL spiked, 24 h, autosampler at 4 °C).
Under “tissue uptake ratio”, CCNc1cc2[o+]c3cc(NCC)c(C)cc3c(-c3ccccc3C(=O)OCCOCC[18F])c2cc1C is recorded as 4.6 (rat; 30 min; reference: heart over bone).
The half-life of CC(NC(=O)NNS(=O)(=O)c1ccc(OC(F)F)cc1)(C(F)(F)F)C(F)(F)F is reported as 120 min (rat Sprague-Dawley, plasma; oral).
Cc1ccc2c(n1)c(-c1cccc(S(C)(=O)=O)c1)c(C)n2C/C(F)=C/CN — result for tolerability: “not toxic” (healthy human volunteers; dose not given, 14 days dosing plus 7 days drug-free).
With CSCC[C@H](NC(=O)CNC(=O)[C@H](CC(=O)O)NC(=O)[C@@H](NC(=O)[C@@H](NC(=O)[C@@H](NC(=O)CNC(=O)[C@H](CCC(N)=O)NC(=O)[C@H](CCSC)NC(=O)[C@H](CC(=O)O)NC(=O)[C@H](C)NC(=O)[C@H](C)NC(=O)[C@@H](NC(=O)[C@H](CO)NC(=O)[C@@H](N)CC(C)C)[C@@H](C)O)C(C)C)C(C)C)[C@@H](C)O)C(=O)N[C@@H](C)C(=O)N[C@@H](CO)C(=O)NCC(=O)N[C@@H](CC(C)C)C(=O)N[C@@H](CC(=O)O)C(=O)N[C@@H](CCCCN)C(=O)N[C@@H](CC(=O)O)C(=O)N[C@@H](Cc1ccc(O)cc1)C(=O)N[C@@H](CC(C)C)C(=O)N[C@@H](CCCCN)C(=O)N1CCC[C@H]1C(=O)N[C@@H](CC(=O)O)C(=O)N[C@@H](CC(=O)O)C(=O)O the Tmax was 4.8 min (human, serum; intravenous, 1.66 mg/kg, patients, infusion).
For O=C(O)CC[C@H](NC(=O)O[C@@H](CCCCNC(=O)c1ccc([18F])cc1)C(=O)O)C(=O)O, the tissue uptake was 14.2 ± 8.47 %ID/g (mouse, PC-3 PIP/flu xenografts, kidney; 30 min).
